Earlier results, collected from citations in different studies.
Lines come from different studies, so protocols differ. ± gives the spread as reported.
Sequence of UniProt Q16584 (whole entry, looked up): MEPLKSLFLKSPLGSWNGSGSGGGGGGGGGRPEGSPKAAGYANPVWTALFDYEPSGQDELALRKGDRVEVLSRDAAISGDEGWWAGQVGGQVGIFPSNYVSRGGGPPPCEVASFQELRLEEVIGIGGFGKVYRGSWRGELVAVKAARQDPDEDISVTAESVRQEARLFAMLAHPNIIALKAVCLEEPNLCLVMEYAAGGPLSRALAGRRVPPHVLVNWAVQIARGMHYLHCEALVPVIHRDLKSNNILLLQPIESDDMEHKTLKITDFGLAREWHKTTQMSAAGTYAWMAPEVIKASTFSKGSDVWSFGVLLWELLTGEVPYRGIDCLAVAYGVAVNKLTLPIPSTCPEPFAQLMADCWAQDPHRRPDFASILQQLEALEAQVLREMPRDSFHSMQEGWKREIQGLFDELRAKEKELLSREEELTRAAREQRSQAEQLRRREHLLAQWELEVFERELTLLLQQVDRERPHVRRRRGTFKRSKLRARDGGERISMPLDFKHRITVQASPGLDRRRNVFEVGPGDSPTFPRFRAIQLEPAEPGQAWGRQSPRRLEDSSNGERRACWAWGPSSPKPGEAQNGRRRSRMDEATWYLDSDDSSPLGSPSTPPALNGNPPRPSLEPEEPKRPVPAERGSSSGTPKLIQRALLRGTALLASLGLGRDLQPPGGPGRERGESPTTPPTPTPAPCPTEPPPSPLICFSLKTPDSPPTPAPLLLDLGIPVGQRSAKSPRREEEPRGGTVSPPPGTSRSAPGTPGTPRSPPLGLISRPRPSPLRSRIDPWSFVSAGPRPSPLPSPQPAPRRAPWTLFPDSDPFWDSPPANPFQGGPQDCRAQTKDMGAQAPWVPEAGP

CO[C@H]1/C=C/O[C@@]2(C)Oc3c(C)c(O)c4c(O)c(c5c(nc6cc(C)ccn65)c4c3C2=O)NC(=O)/C(C)=C\C=C\[C@H](C)[C@H](O)[C@@H](C)[C@@H](O)[C@@H](C)[C@H](OC(C)=O)[C@@H]1C  Cmax (human, plasma total; 200 mg): 2.5 nM
C[C@H]1CO[C@@H]2Cn3cc(C(=O)NCc4ccc(F)cc4F)c(=O)c(O)c3C(=O)N12  Cmax (human; oral tablet, two 5 mg tablets, geometric mean fed): 1180 ng/mL
CCN1CCN(Cc2ccc(Nc3ncc(F)c(-c4cc(F)c5nc(C)n(C(C)C)c5c4)n3)nc2)CC1  Cmax (human; oral tablet, 150 mg twice daily, multiple dose): 123 ng/mL
CCN(CC)Cc1ccc2cc(COC(=O)Nc3ccc(C(=O)NO)cc3)ccc2c1  Cmax (healthy male humans; oral, 100 mg): 199 nM
COCCCC/C(=N\OCCN)c1ccc(C(F)(F)F)cc1  Cmax (human; oral, 100 mg single dose): 36 ng/mL
COc1cc2nc(N(C)CCCNC(=O)C3CCCO3)nc(N)c2cc1OC (stereo not drawn)  Cmax (human, plasma; concentration not given): 32 nM
Cc1cc(CCCOc2c(C)cc(-c3noc(C(F)(F)F)n3)cc2C)on1  Cmax (human, plasma total; 400 mg): 2750 nM
CC(C)[C@H](C(=O)Nc1ccc(C(=O)NO)cc1)c1ccccc1  Cmax (human subjects; oral, 20 mg): 383 nM
CO[C@@H](C)Cn1c(=O)n(C)c2cnc3ccc(-c4cncc(C(C)(C)O)c4)cc3c21  Cmax (human; single 200 mg dose, monotherapy, geometric mean): 828 ng/mL
CC[C@H](Nc1ncnc2[nH]cnc12)c1nc2cccc(F)c2c(=O)n1-c1ccccc1  Cmax (human; dose not given): 5200 nM
O=C(c1cccnc1-c1ccncc1)N1CCC(O)(Cc2ccccc2)CC1  Cmax (human; dose not given, fed vs fasted): decreased
O=C(CCCN1CCC(O)(c2ccc(Cl)cc2)CC1)c1ccc(F)cc1  Cmax (human, plasma; concentration not given): 27 nM
C#C[C@]1(O)CC[C@H]2[C@@H]3CCC4=CC(=NO)CC[C@@H]4[C@H]3CC[C@@]21CC (mixture of isomers)  Cmax (human fasted; 0.215 mg, after 7 days, together with: norgestimate): 2.12 ng/mL
O=C(c1cc(Cc2n[nH]c(=O)c3ccccc23)ccc1F)N1CCN(C(=O)C2CC2)CC1  Cmax (human; oral, 100 mg tablet, single dose, together with: itraconazole 200 mg qd for 7 days): 4200 ng/mL
Cc1cc(C)c(CNC(=O)c2cc(Cl)c3c(c2C)O[C@@](C)([C@H]2CC[C@H](N(C)C)CC2)O3)c(=O)[nH]1  Cmax (healthy human, fasted; oral, 200 mg single dose, mean): ~1500 ng/mL
CCc1nn(CCO)c(CC)c1Oc1cc(C#N)cc(C#N)c1  Cmax (human, plasma total; 1000 mg): 7400 nM
Cc1ccc([C@@H]2O[C@H](CO)[C@@H](O)[C@H](O)[C@H]2O)cc1Cc1ccc(-c2ccc(F)cc2)s1  Cmax (human, preserved kidney function; 100 mg, steady state, mean): 1120 ng/mL
COc1cc(NC(=O)CCN2CCC(OC(=O)Nc3ccccc3-c3ccccc3)CC2)c(Cl)cc1CNC[C@H](O)c1ccc(O)c2[nH]c(=O)ccc12  Cmax (human, plasma; inhaled, dose not given): 0.14 nM
CCCc1nc2c(C)cc(-c3nc4ccccc4n3C)cc2n1Cc1ccc(-c2ccccc2C(=O)O)cc1  Cmax (human; dose not given): 300 nM
Cn1c(Cn2ccc(C(F)(F)F)c(Oc3cc(Cl)cc(C#N)c3)c2=O)n[nH]c1=O  Cmax (human, plasma total; 120 mg): 2710 nM
COc1c(C)c2c(c(O)c1C/C=C(\C)CCC(=O)OCCN1CCOCC1)C(=O)OC2  Cmax (human, plasma; concentration not given, total plasma concentration): 57000 nM
CCN(CC)CCN(CCNCCc1ccc(O)c2[nH]c(=O)sc12)C(=O)CCOCCc1cccc2ccccc12  Cmax (human, plasma; inhaled, dose not given): 3.7 nM
Nc1cc(C(F)(F)F)c(-c2nc(N3CCOCC3)nc(N3CCOCC3)n2)cn1  remaining activity (Mitogen-activated protein kinase kinase kinase 11 (MAP3K11, Homo sapiens, UniProt Q16584); enzyme activity; 10 µM; reference: untreated): 100%
Cc1cc2c(s1)Nc1ccccc1N=C2N1CCN(C)CC1  Cmax (human; oral, 10 mg, day 1): 15.2 ng/mL
CN(C)C/C=C/C(=O)Nc1cc2c(Nc3ccc(F)c(Cl)c3)ncnc2cc1O[C@H]1CCOC1  Cmax (human, plasma; concentration not given): 78 nM
COc1cccc2c1C(=O)c1c(O)c3c(c(O)c1C2=O)C[C@@](O)(C(=O)CO)C[C@@H]3O[C@H]1C[C@H](N)[C@H](O)[C@H](C)O1  Cmax (human, plasma; intravenous infusion, 9 mg/m2/day, 96 h infusion): 29 ± 8 nM
C=CC[C@@H]1/C=C(\C)C[C@H](C)C[C@H](OC)[C@H]2O[C@@](O)(C(=O)C(=O)N3CCCC[C@H]3C(=O)O[C@H](/C(C)=C/[C@@H]3CC[C@@H](O)[C@H](OC)C3)[C@H](C)[C@@H](O)CC1=O)[C@H](C)C[C@@H]2OC  Cmax (human, plasma; concentration not given): 83 nM
C[C@@H](Oc1ccc(S(C)(=O)=O)cc1C(=O)N1C[C@@H]2C[C@]2(c2cc(C(F)(F)F)on2)C1)C(F)(F)F  Cmax (human; oral, 25 mg, tablet, fasted, single dose): 218 nM
OC(Cn1cncn1)(Cn1cncn1)c1ccc(F)cc1F  Cmax (human; oral, 100 mg single dose): 1870 ng/mL
Cn1c(Cn2ccc(C(F)(F)F)c(Oc3cc(Cl)cc(C#N)c3)c2=O)n[nH]c1=O  Cmax (human; 1200 mg single dose): 11200 nM
C[C@@H](Oc1cc(-c2cnn(C3CCNCC3)c2)cnc1N)c1c(Cl)ccc(F)c1Cl  Cmax (human, plasma; dose not given): 610 nM
CC(C)N(CCCCOCC(=O)NS(C)(=O)=O)c1cnc(-c2ccccc2)c(-c2ccccc2)n1  Cmax (human, plasma total; 1.6 mg): 512 nM
Cc1nsc(-c2nnc3n2CCN(C(=O)c2ccc(F)cc2)[C@@H]3C)n1  Cmax (human; oral, 60 mg, day 1, fed): 336 ng/mL
CC(C)NCC(O)c1ccc(O)c(O)c1 (stereo not drawn)  Cmax (human, plasma; concentration not given): 2.7 nM
C=CC(=O)N1CCC([C@@H]2CCNc3c(C(N)=O)c(-c4ccc(Oc5ccccc5)cc4)nn32)CC1  Cmax (human patients; oral, 40 mg once daily, day 1): 80 ± 43 ng/mL
CN(C)c1ccc2nc3ccc(=[N+](C)C)cc-3sc2c1  Cmax (human, blood; 1 to 2 mg/kg): 2200 to 19000 nM
C[C@@H]1C[C@H]2[C@@H]3CCC4=CC(=O)C=C[C@]4(C)[C@@]3(F)[C@@H](O)C[C@]2(C)[C@@]1(O)C(=O)CO  Cmax (human, plasma; 8 mg, monotherapy): 70.4 ng/mL
COCCc1ccc(OCC(O)CNC(C)C)cc1 (stereo not drawn)  Cmax (human fasted; 400 mg multiple doses, day 7, mean): 224 ng/mL
Cc1c(C)c2c(c(C)c1O)CCC(C)(COc1ccc(CC3SC(=O)NC3=O)cc1)O2 (stereo not drawn)  Cmax (human, plasma; oral, 400 mg single dose): 2000 to 4000 nM
CC1(C)C[C@@H]1C(=O)N/C(=C\CCCCSC[C@H](N)C(=O)O)C(=O)O  Cmax (human; intravenous, dose not given): 182000 nM
COc1cc2c(Oc3ccc4[nH]c(C)cc4c3F)ccnc2cc1OCC1(N)CC1  Cmax (human; 16 mg single dose): 15.8 ± 3.2 ng/mL
CC(C)(C)NCC(O)COc1cccc2c1CC(O)C(O)C2 (stereo not drawn)  Cmax (human, plasma; concentration not given): 430 nM
CCCCCCOC(=O)NC(=N)c1ccc(NCc2nc3cc(C(=O)N(CCC(=O)OCC)c4ccccn4)ccc3n2C)cc1  Cmax (human; oral, dose not given): 95 ng/mL
COc1ccc2[nH]c([S+]([O-])Cc3ncc(C)c(OC)c3C)nc2c1 (stereo not drawn)  Cmax (human obese subjects; oral tablet, 20 mg once daily, day 6): 749 ng/mL
CNCc1cc(-c2ccccc2F)n(S(=O)(=O)c2cccnc2)c1  Cmax (human; 20 mg, single dose): 23 ng/mL

Excerpt of the above:
Cc1ccc([C@@H]2O[C@H](CO)[C@@H](O)[C@H](O)[C@H]2O)cc1Cc1ccc(-c2ccc(F)cc2)s1  Cmax (human, preserved kidney function; 100 mg, steady state, mean): 1120 ng/mL
COc1cc(NC(=O)CCN2CCC(OC(=O)Nc3ccccc3-c3ccccc3)CC2)c(Cl)cc1CNC[C@H](O)c1ccc(O)c2[nH]c(=O)ccc12  Cmax (human, plasma; inhaled, dose not given): 0.14 nM
CCCc1nc2c(C)cc(-c3nc4ccccc4n3C)cc2n1Cc1ccc(-c2ccccc2C(=O)O)cc1  Cmax (human; dose not given): 300 nM
Cn1c(Cn2ccc(C(F)(F)F)c(Oc3cc(Cl)cc(C#N)c3)c2=O)n[nH]c1=O  Cmax (human, plasma total; 120 mg): 2710 nM
COc1c(C)c2c(c(O)c1C/C=C(\C)CCC(=O)OCCN1CCOCC1)C(=O)OC2  Cmax (human, plasma; concentration not given, total plasma concentration): 57000 nM
CCN(CC)CCN(CCNCCc1ccc(O)c2[nH]c(=O)sc12)C(=O)CCOCCc1cccc2ccccc12  Cmax (human, plasma; inhaled, dose not given): 3.7 nM
